Assay results gathered from unrelated publications.
Each numbered part is a random draw from the data of one study; scales do not carry over between parts. Several values in a cell are separate wells, animals, samples, runs or records.
UniProt Q9Y2K2, sequence (whole entry, looked up): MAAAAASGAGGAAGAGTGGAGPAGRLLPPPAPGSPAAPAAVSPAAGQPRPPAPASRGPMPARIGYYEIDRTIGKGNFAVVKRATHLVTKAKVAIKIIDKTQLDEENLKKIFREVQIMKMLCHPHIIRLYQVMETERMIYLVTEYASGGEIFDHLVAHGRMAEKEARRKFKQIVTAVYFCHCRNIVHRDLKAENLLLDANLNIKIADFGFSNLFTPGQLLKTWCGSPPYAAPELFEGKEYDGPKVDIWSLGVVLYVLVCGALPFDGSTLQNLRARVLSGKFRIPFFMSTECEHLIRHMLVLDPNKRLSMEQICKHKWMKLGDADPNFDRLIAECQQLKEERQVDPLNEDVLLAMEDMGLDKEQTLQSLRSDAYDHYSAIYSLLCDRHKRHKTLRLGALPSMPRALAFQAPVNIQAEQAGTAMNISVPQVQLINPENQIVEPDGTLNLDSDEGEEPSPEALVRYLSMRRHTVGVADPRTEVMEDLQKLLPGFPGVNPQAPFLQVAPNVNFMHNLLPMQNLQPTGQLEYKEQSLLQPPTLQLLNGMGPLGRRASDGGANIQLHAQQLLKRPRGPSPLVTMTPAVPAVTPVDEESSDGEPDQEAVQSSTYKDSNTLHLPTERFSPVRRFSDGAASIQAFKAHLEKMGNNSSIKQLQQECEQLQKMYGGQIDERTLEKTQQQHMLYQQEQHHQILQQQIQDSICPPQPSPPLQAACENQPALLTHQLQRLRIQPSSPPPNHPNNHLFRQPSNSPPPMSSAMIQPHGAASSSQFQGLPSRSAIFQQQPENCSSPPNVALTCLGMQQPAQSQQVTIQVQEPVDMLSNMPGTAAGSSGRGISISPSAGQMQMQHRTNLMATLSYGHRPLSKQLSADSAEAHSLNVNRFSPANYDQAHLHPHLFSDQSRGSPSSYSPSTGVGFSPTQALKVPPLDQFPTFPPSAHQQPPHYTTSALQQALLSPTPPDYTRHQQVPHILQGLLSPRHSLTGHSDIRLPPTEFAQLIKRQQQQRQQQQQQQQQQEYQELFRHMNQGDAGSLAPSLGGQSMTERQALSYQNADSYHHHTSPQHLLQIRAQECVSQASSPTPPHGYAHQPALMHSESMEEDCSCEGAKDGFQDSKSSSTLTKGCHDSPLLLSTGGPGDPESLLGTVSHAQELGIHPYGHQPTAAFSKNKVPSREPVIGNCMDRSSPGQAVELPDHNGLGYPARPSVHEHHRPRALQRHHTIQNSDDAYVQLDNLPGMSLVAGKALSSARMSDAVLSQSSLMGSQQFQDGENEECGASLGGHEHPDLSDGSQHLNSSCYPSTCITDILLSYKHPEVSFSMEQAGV
UniProt Q9H0K1, sequence (whole entry, looked up): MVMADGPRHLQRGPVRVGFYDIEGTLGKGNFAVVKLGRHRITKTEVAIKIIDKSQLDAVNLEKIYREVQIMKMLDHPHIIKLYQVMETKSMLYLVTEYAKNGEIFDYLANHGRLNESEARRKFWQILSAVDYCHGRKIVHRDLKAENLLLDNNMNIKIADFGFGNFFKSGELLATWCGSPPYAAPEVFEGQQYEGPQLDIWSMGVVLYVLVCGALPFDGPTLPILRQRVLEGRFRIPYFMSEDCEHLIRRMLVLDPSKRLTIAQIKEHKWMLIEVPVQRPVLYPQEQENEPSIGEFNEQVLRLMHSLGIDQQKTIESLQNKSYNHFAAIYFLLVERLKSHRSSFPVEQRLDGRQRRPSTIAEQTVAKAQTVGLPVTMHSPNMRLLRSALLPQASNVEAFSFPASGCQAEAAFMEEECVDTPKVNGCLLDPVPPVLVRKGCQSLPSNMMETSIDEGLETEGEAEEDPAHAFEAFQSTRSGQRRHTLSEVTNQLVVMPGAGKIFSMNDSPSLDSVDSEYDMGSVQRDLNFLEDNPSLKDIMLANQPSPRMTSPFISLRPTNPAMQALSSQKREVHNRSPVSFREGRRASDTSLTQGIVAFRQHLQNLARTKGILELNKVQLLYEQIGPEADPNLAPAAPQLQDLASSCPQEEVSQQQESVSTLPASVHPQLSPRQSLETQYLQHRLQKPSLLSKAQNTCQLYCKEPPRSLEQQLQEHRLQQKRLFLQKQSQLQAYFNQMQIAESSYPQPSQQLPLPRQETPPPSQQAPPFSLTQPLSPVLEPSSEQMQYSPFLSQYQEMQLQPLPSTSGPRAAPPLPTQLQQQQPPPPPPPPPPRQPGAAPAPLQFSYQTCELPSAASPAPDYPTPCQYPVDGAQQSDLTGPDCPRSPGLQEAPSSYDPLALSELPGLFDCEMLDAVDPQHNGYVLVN
UniProt Q06187, sequence (whole entry, looked up): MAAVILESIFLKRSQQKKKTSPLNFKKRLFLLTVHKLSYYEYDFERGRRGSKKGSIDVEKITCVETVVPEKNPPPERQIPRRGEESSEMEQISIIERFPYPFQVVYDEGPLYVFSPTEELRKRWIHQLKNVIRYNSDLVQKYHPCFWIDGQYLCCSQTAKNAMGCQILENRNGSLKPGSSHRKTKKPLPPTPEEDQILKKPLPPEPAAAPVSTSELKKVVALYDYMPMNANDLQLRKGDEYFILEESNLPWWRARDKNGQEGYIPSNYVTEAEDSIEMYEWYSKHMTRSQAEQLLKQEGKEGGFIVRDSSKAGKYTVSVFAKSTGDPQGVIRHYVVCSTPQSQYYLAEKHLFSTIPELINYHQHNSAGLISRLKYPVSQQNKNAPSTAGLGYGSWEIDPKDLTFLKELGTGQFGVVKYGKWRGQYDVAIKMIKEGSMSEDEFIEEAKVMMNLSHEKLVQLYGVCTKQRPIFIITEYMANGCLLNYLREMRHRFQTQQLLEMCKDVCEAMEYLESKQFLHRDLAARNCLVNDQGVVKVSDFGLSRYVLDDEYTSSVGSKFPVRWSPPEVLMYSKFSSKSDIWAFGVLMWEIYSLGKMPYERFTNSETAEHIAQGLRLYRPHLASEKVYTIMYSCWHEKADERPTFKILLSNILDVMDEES
UniProt Q8NE63, sequence (whole entry, looked up): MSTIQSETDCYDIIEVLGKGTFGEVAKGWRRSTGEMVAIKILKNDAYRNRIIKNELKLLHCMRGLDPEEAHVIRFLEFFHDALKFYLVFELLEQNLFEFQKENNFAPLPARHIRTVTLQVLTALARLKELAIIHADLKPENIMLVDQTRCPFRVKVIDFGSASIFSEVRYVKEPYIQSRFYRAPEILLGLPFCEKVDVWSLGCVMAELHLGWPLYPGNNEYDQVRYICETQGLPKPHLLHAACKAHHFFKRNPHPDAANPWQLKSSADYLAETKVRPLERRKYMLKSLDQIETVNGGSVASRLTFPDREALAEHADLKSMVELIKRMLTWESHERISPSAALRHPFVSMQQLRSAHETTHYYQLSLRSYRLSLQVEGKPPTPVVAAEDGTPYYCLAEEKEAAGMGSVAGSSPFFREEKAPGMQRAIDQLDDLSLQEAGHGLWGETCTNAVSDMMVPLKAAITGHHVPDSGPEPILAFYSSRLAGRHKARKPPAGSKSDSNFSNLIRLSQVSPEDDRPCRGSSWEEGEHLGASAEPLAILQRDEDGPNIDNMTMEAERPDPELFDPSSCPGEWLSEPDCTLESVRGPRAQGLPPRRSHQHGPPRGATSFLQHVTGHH
UniProt O75582, sequence (whole entry, looked up): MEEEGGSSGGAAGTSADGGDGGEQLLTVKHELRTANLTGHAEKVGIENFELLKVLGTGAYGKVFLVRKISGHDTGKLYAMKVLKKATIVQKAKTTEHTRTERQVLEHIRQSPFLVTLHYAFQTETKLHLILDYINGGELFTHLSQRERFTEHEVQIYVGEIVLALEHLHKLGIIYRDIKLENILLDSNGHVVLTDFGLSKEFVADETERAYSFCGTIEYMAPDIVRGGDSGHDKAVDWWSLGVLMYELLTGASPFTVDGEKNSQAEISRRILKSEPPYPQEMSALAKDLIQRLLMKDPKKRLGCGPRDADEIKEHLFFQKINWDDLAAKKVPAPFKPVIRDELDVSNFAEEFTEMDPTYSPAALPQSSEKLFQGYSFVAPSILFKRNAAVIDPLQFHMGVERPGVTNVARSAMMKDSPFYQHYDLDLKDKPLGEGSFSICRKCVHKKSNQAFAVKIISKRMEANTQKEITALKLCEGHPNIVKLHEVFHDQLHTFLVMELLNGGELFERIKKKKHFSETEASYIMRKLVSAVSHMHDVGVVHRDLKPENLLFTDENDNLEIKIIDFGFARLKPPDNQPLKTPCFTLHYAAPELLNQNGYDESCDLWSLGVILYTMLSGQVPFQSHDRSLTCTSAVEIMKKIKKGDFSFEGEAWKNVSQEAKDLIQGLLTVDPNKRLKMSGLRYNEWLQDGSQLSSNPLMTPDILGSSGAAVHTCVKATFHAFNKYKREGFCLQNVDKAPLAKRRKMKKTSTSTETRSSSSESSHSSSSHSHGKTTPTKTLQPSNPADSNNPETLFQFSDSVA

Set 1
SMILES: Cn1cc(-c2cccc(CN3CCC4(CC3)COc3c4ccc4c3CN([C@H]3CCC(=O)NC3=O)C4=O)c2)cn1
Route: oral
| host | sample | dose | setting | oral bioavailability |
| --- | --- | --- | --- | --- |
| rat | – | 3 mg/kg | approximate dose | 116% and 153% and 83.3% |
| cynomolgus monkey | – | 3 mg/kg | – | 42.8% and 43.5% and 64% |
| rat | plasma | 2.98 mg/kg | group mean | 118% |

Set 2
Compound: CN(C1COC1)C(C)(C)/C=C(\C#N)C(=O)N1CCC[C@H]1Cn1nc(-c2ccc(Oc3ccccc3)cc2F)c2c(N)ncnc21
Observed: kinase activity
| target | tested at | inhibition [%] |
| --- | --- | --- |
| PIM3 (Homo sapiens, UniProt Q86V86) | 1 µM | 9 |
| SIK2 (Homo sapiens, UniProt Q9H0K1) | 0.1 µM | 7 |
| CAMK2G (Homo sapiens, UniProt Q13555) | 0.1 µM | -1 |
| STK10 (Homo sapiens, UniProt O94804) | 0.1 µM | 29 |
| SPHK1 (Homo sapiens, UniProt Q9NYA1) | 0.1 µM | 0 |
| TAOK2 (Homo sapiens, UniProt Q9UL54) | 0.1 µM | 1 |
| FRK (Homo sapiens, UniProt P42685) | 1 µM | 4 |
| HIPK4 (Homo sapiens, UniProt Q8NE63) | 0.1 µM | 3 |

Set 3
Target: Sodium-dependent neutral amino acid transporter B(0)AT1 (SLC6A19, Homo sapiens, UniProt Q695T7)
UniProt Q695T7, sequence (whole entry, looked up): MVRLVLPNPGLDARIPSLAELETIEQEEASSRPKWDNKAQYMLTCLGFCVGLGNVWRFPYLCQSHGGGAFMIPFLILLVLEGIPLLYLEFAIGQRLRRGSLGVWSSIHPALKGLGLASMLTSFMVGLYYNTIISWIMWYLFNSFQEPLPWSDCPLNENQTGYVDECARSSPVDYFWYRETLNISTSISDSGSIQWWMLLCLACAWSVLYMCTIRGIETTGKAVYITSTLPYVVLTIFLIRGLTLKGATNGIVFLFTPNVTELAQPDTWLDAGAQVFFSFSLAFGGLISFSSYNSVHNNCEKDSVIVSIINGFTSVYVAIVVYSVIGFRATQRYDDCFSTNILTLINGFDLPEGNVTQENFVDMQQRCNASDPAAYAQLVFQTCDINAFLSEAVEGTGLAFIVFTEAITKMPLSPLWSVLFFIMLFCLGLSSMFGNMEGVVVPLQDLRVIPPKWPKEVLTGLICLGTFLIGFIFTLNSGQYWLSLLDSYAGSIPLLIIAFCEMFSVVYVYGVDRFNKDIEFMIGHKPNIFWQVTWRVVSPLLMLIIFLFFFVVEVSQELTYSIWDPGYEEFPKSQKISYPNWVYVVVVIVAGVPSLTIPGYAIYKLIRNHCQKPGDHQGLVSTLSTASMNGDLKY
Method: FLIPR membrane potential
Cells: CHO-BC
Tested at: concentration not given
Relative to: 100 µM cinromide set to 0
| SMILES | remaining activity [%] |
| --- | --- |
| Cc1cc(OCC(=O)NCCc2ccccc2)cc(C)c1Cl | 95.3 |
| CCCCCCNC(=O)COc1cc(C)c(Cl)c(C)c1 | 110 |
| CCC(C)NC(=O)COc1cc(C)c(Cl)c(C)c1 (racemic) | 108 |
| Cc1cc(OCC(=O)NCCCO)cc(C)c1Cl | 103 |
| Cc1cc(OCC(=O)SC(C)C)cc(C)c1Cl | 131 |
| Cc1cc(OCC(=O)NCC(C)C)cc(C)c1Cl | 83.8 |
| CCCCCCCCNC(=O)COc1cc(C)c(Cl)c(C)c1 | 105 |
| Cc1cc(OCC(=O)OC(C)C)cc(C)c1Cl | 102 |

Set 4
SMILES: COc1cc(-c2nc3ccc(C(=O)NCCCN(C)C)cc3n2C2CCC2)cc(OC)c1OC
Observed: binding
Method: competition with immobilised ligand
Tested at: 1 µM
| target | remaining binding [%] |
| --- | --- |
| BTK (Homo sapiens, UniProt Q06187) | 67 |
| PRKAA2 (Homo sapiens, UniProt P54646) | 97 |
| PRKACB (Homo sapiens, UniProt P22694) | 89 |
| SIK3 (Homo sapiens, UniProt Q9Y2K2) | 92 |
| Tyrosine-protein kinase ABL1, non-phosphorylated (ABL1, Homo sapiens, UniProt P00519, Q252H) | 23 |
| DYRK1B (Homo sapiens, UniProt Q9Y463) | 82 |
| MAP3K4 (Homo sapiens, UniProt Q9Y6R4) | 98 |
| Ribosomal protein S6 kinase alpha-5, N-terminal kinase domain (RPS6KA5, Homo sapiens, UniProt O75582) | 94 |
